Experimental data gathered from unrelated publications.
Every numbered part comes from another study and shows a few of its results, in no order. Substitutions count along the parent as printed.

Series 1
Target: CCND2, cyclin fold, Cln2 fusion (human)
Technique: yeast growth competition, sequencing
Matrix: yeast
Notes: weak parent motif
Reference: not given
Direction: higher = stronger binding
Starting sequence: DBF4 docking peptide (human); DDIVSKLVFDFVE
For `DDIVSKLVADFVE [F9A]`, “normalised enrichment score” read 0.0708.
Under “normalised enrichment score”, `DDIVSKLVFAFVE [D10A]` is recorded as 0.529.
`DAIVSKLVFDFVE [D2A]` — result for “normalised enrichment score”: 0.0376.
`ADIVSKLVFDFVE [D1A]` — result for “normalised enrichment score”: -0.0927.
Under “normalised enrichment score”, `DDIVSKLVFDFVA [E13A]` is recorded as 0.0738.
Under “normalised enrichment score”, `DDIVSKLVFDFAE [V12A]` is recorded as -0.156.
`DDIASKLVFDFVE [V4A]` — result for “normalised enrichment score”: 0.149.

Series 2
Target: Interferon regulatory factor 5, full length, phosphomimetic (IRF5, Homo sapiens, UniProt Q13568-2, residues 1-514, K96S/S451D/S453D/S456D/S462D)
Technique: protein-binding microarray
Form: double-stranded DNA, one strand shown
Matrix: in vitro
Tested at: 250 nM
Notes: 60-bp whole probe
With: salmon DNA 0.4 mg/ml
Reference: random background probes
Direction: higher = stronger binding
Shared flanks, not repeated: GCCTAGCAC … GTCTTGATTCGCTTGACGCTGCTG
For `TATCCTTCCCCTCTAGGTTCGTGCTAG`, the log fluorescence was 0.53 z-score.
`TCAGATTTCCCCACCATACTGTGCTAG` has a log fluorescence of 0.385 z-score.
For `TCATACCTCATCTTCCTCACTGTGCTA`, the log fluorescence was 0.396 z-score.
For `GTTAGAATGTCCTTTCTCCATGTGCTA`, the log fluorescence was 0.573 z-score.
`CAAATACTCTTCCATGGAGAAGTGCTA` has a log fluorescence of 0.354 z-score.
`TATAGGTTGTTTCTAATATTGTGCTAG` gave a log fluorescence of 0.863 z-score.
The log fluorescence of `GACGGTAACGGACTGGGGACGTGCTAG` is reported as -0.289 z-score.
The log fluorescence of `TTAGATTTCAGTATCGATTAGTGCTAG` is reported as 8.58 z-score.
The log fluorescence of `GACGGTTTCCTTATCCTCACGTGCTAG` is reported as 1.01 z-score.
`TTAGACCTCAGACTGGATTAGTGCTAG` has a log fluorescence of -0.445 z-score.
`TATGTTCACTATTTAAGAACGTGCTAG` gave a log fluorescence of 0.717 z-score.
For `GACGGTATCGACACTGGGCACGTGCTA`, the log fluorescence was 1.52 z-score.
With `TTAGGTATCGACACGGGGTTAGTGCTA` the log fluorescence was 2.49 z-score.
The log fluorescence of `CGCTCCCTTTATTCCACATTGTGCTAG` is reported as 0.0116 z-score.
For `TTAGATTTAAGTTTCGATTAGTGCTAG`, the log fluorescence was 9.66 z-score.
`GACGAACTGAGATTCGAGACGTGCTAG` has a log fluorescence of -0.333 z-score.
`TGTGGCTTAGTTTGTCAAAAAGTGCTA` has a log fluorescence of -0.277 z-score.
`TTAGTTCTCCTTCTCCTTTAGTGCTAG` has a log fluorescence of 0.839 z-score.
For `TTAAGTATCGGGTTTCGGTTAGTGCTA`, the log fluorescence was 9.4 z-score.

Series 3
Target: Ras GTPase-activating protein-binding protein 1, full length (G3BP1, Homo sapiens, UniProt Q13283)
UniProt Q13283, sequence (whole entry, looked up): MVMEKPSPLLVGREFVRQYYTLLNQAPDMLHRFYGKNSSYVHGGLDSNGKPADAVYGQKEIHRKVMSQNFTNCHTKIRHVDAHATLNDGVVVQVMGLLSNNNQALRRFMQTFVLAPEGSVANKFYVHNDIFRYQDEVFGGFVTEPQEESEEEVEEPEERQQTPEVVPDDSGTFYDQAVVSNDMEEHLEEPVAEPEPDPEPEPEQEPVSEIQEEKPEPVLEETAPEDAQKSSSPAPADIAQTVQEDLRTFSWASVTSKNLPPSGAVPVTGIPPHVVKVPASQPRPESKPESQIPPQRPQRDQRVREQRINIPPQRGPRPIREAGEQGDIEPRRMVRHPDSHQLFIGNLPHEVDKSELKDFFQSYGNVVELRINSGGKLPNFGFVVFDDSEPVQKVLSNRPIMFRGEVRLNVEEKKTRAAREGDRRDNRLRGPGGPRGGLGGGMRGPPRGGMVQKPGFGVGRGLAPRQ
Technique: RNA Bind-n-Seq
Form: RNA
Matrix: in vitro
Tested at: 200 nM
Notes: whole 134-nt RNA, ends assumed
With: 150 mM LiCl
Reference: input library
Direction: higher = stronger binding
Each molecule: 7-deaza-guanosine replaces G
The log2 enrichment of `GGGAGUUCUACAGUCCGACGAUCAAGUCCUGUGCUACACAUCGUAUGUACCGAAUCGGAAAAAAAGGAAAAAAAGGUGGAAAGUAUUAUGUUACGCCGUUCGGAUCUGCACUUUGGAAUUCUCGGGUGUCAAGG` is reported as -1.36.
For `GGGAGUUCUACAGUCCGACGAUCGUCCUGUGCUACACAUCGUAUGUACCGAAUCGGCCCCCCGGGCCCCCCGGCCCCCCGGAAAGUAUUAUGUUACGCCGUUCGGAUCUGCACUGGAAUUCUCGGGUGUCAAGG`, the log2 enrichment was 0.0339.
With `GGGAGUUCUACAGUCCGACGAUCUGGCCCUGGUGGCAUGCGGGGAGGAAGAGGUGGCCUCAUGGAUCGUGGUGGUCCCGGUGGAAUGUUCAGACGUGGCCGUGGUGGAGACAGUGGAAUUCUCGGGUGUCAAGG` the log2 enrichment was 0.122.
The log2 enrichment of `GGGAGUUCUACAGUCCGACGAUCGCAGGAAGUAAAAACAAAUGGAAAUGCUUCGGAUAGUGGCAGGGGUGGGGGUUGCUAAGGAUAGGGUGGGAUGGGAGUGGGUAAAGAGUUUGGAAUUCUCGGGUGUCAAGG` is reported as 0.0135.
`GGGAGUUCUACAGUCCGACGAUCUCAAGUCCUGUGCUACACAUCGUAUGUACCGAAUCGGGGAGGGGUGGGGUGGGGAAAGUAUUAUGUUACGCCGUUCGGAUCUGCACUUCCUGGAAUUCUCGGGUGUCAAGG` gave a log2 enrichment of -0.0988.
With `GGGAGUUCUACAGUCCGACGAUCAGUCCUGUGCUACACAUCGUAUGUACCGAAUCGGCCCCCGGCCCCCGGGCCCCCGGGAAAGUAUUAUGUUACGCCGUUCGGAUCUGCACUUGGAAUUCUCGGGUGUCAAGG` the log2 enrichment was -0.516.
`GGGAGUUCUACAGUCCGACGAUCUGUACUGAUGACAGCUAAUCUCUGAAUCUUUUUCCUCCAGGAUGUUCCUUCAGGAGGAAGCAGCACUAAAAGCACUCUGAGUCAAGAUGAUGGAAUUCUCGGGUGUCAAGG` gave a log2 enrichment of 0.467.
With `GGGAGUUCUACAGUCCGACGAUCGUCCUGUGCUACACAUCGUAUGUACCGAAUCGGGCCCCCGGGCCCCCGGGGCCCCCGGGAAAGUAUUAUGUUACGCCGUUCGGAUCUGCAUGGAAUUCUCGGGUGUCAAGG` the log2 enrichment was -2.03.

Series 4
Target: ABI1, truncated, D143A, DHFR fusion (Arabidopsis thaliana)
Technique: DHFR PCA, deep sequencing
Matrix: yeast
Notes: methotrexate growth selection, single substitutions
With: (+)-ABA 0.0091 µM
Reference: wild-type fitted maximum
Direction: higher = stronger binding
Starting sequence: PYL1, truncated, DHFR fusion (Arabidopsis thaliana); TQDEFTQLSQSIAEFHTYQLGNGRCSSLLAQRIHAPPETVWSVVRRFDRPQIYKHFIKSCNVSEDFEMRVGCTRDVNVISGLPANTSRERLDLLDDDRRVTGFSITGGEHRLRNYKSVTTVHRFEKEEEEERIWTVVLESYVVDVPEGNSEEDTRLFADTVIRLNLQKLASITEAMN
`T154N` — result for “relative binding score”: -4.73%.
`H122D` — result for “relative binding score”: -1.37%.
For `I57D`, “relative binding score” read -7.46%.
Under “relative binding score”, `S80W` is recorded as 63.7%.
Under “relative binding score”, `G148R` is recorded as -2.65%.
`L29Y` — result for “relative binding score”: 0.449%.
For `E131R`, “relative binding score” read 56.3%.
`D153G`: “relative binding score” 3.12%.
For `V145C`, “relative binding score” read -0.448%.
`Q19T` — result for “relative binding score”: 31.8%.
For `R46V`, “relative binding score” read -2.61%.
`S9P` — result for “relative binding score”: 3.61%.
`M68G`: “relative binding score” -0.614%.
`P37K`: “relative binding score” -6.19%.
`D65F`: “relative binding score” 5.86%.
`A13Q`: “relative binding score” 40.3%.
Under “relative binding score”, `P83H` is recorded as 7.19%.
Under “relative binding score”, `L169W` is recorded as -2.05%.
`L91D`: “relative binding score” 10%.
Under “relative binding score”, `E147R` is recorded as 3.26%.

A few entries again (series 3):
For `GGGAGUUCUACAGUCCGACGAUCGUCCUGUGCUACACAUCGUAUGUACCGAAUCGGCCCCCCGGGCCCCCCGGCCCCCCGGAAAGUAUUAUGUUACGCCGUUCGGAUCUGCACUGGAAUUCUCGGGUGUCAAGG`, the log2 enrichment was 0.0339.
With `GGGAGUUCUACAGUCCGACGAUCUGGCCCUGGUGGCAUGCGGGGAGGAAGAGGUGGCCUCAUGGAUCGUGGUGGUCCCGGUGGAAUGUUCAGACGUGGCCGUGGUGGAGACAGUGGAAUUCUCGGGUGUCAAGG` the log2 enrichment was 0.122.
The log2 enrichment of `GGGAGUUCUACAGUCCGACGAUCGCAGGAAGUAAAAACAAAUGGAAAUGCUUCGGAUAGUGGCAGGGGUGGGGGUUGCUAAGGAUAGGGUGGGAUGGGAGUGGGUAAAGAGUUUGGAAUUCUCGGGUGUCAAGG` is reported as 0.0135.
`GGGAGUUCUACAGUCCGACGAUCUCAAGUCCUGUGCUACACAUCGUAUGUACCGAAUCGGGGAGGGGUGGGGUGGGGAAAGUAUUAUGUUACGCCGUUCGGAUCUGCACUUCCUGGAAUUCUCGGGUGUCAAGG` gave a log2 enrichment of -0.0988.
With `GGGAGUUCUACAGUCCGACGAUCAGUCCUGUGCUACACAUCGUAUGUACCGAAUCGGCCCCCGGCCCCCGGGCCCCCGGGAAAGUAUUAUGUUACGCCGUUCGGAUCUGCACUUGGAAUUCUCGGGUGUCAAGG` the log2 enrichment was -0.516.
`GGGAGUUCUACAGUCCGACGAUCUGUACUGAUGACAGCUAAUCUCUGAAUCUUUUUCCUCCAGGAUGUUCCUUCAGGAGGAAGCAGCACUAAAAGCACUCUGAGUCAAGAUGAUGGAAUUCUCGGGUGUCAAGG` gave a log2 enrichment of 0.467.
